Measured values gathered from unrelated publications.
Numbered parts are unrelated; each lists some results of a single study. Changes are numbered by the printed parent chain.

Series 1
Target: Interferon regulatory factor 5, full length, phosphomimetic (IRF5, Homo sapiens, UniProt Q13568-2, residues 1-514, K96S/S451D/S453D/S456D/S462D)
Technique: protein-binding microarray
Form: double-stranded DNA, one strand shown
Matrix: in vitro
Concentration: 250 nM
Setting: 60-bp whole probe
Together with: salmon DNA 0.4 mg/ml
Baseline: random background probes
Reading: higher = stronger binding
All sequences stand within: GCCTAGCAC … GTCTTGATTCGCTTGACGCTGCTG
`TTAGAACTAGGGTATCGATTAGTGCTA` gave a log fluorescence of 2.09 z-score.
`GACGATATCGGACTGGAGACGTGCTAG` gave a log fluorescence of 0.827 z-score.
The log fluorescence of `TTAGGTATCGACACTGGGCTAGTGCTA` is reported as 2.17 z-score.
For `TTAGGTCTCGGTTTCGTTTAGTGCTAG`, the log fluorescence was 5.76 z-score.
`GACGGTTTCTACTATCGGGACGTGCTA` has a log fluorescence of 3.34 z-score.
For `GACGATTTCGGATATCGAGACGTGCTA`, the log fluorescence was 2.78 z-score.
`TTAGGACAGGACTATCGGTTAGTGCTA` has a log fluorescence of 6.29 z-score.
`CCTTTTTTGTTGTTTTTTGGGTGCTAG` has a log fluorescence of 1.35 z-score.
`TTCACTTTCCAAAACATGAAGTGCTAG` has a log fluorescence of 1.42 z-score.
With `GACGGTATCGACTTTAGGGACGTGCTA` the log fluorescence was 2.04 z-score.
`TACGAACTGAGTTTCGAGACGTGCTAG` has a log fluorescence of 4.7 z-score.
With `GACGATTTCGGGTAGCGAGACGTGCTA` the log fluorescence was 3.8 z-score.
`GACCGTATCGGGTATCGGGACGTGCTA` gave a log fluorescence of 3.41 z-score.
`TCATATATTATATATACAACTGTGCTA` gave a log fluorescence of 1 z-score.
`TTAGGTTTCGGTAGCGGTTAGTGCTAG` has a log fluorescence of 9.87 z-score.

Series 2
Target: Fragile X messenger ribonucleoprotein 1, C-terminal low-complexity region (Fmr1, Mus musculus, UniProt P35922)
Technique: RNA Bind-n-Seq
Form: RNA
Matrix: in vitro
Concentration: 200 nM
Setting: whole 134-nt RNA, ends assumed
Together with: 150 mM LiCl
Baseline: input library
Reading: higher = stronger binding
All molecules: 7-deaza-guanosine replaces G
All sequences stand within: GGGAGUUCUACAGUCCGACGAUC … UGGAAUUCUCGGGUGUCAAGG
`CCUGUGCUACACAUCGUAUGUACCGAAUCGGGAAAAAAAGGGGAAAAAAAGGAAAAAAAGGAAAGUAUUAUGUUACGCCGUUCGGAUCUG` has a log2 enrichment of 0.0902.
The log2 enrichment of `CUGUGCUACACAUCGUAUGUACCGAAUCGGCCCCCCCGGGGCCCCCCCGGGGCCCCCCCGGGAAAGUAUUAUGUUACGCCGUUCGGAUCU` is reported as -2.24.
`AAGUCCUGUGCUACACAUCGUAUGUACCGAAUCAAAUUUAAACCCAAACCCCCAAAAAAGUAUUAUGUUACGCCGUUCGGAUCUGCACUU` gave a log2 enrichment of 0.92.
`CUGUGCUACACAUCGUAUGUACCGAAUCGGGAAAAAAAGGGAAAAAAAGGAAAAAAAGGGGAAAGUAUUAUGUUACGCCGUUCGGAUCUG` gave a log2 enrichment of 0.0355.
`UCCCCAGGGCCUGGCCUACUCAAUCUCUCCCACCUCAUCCUCUGGCAUGGACGCAGUCAGGGAGUCUGCUCCAAGCAGACACUGGUGGUC` has a log2 enrichment of 0.322.
The log2 enrichment of `GCAGGAAGUAAAAACAAAUGGAAAUGCUUCGGAUAGUGGCAGGGGUGGGGGUUGCUAAGGAAAGAGUGGGAUGGGAGUGGGUAAAGAGUU` is reported as 1.51.
`CCUCAAGUCCUGUGCUACACAUCGUAUGUACCGAAUCGGCCGGGCCGGCCGGAAAGUAUUAUGUUACGCCGUUCGGAUCUGCACUUCCAG` gave a log2 enrichment of -0.326.
`AAGUCCUGUGCUACACAUCGUAUGUACCGAAUCAAAUUUAAACCCAAAUUUUUAAAAAAGUAUUAUGUUACGCCGUUCGGAUCUGCACUU` has a log2 enrichment of -1.65.

Series 3
Molecule: PhoQ, residues 284 288 289 292 302 303 NLCILV
Technique: Sort-seq
Item: YFP reporter
Matrix: E. coli
Setting: PhoQ-PhoP variant library
Together with: 10 µM Mg2+
Baseline: high Mg2+ state
Reading: higher = stronger signaling
The fold induction was 12.2 (PhoP, residues 12 14 15 18 19 QQAYL (Escherichia coli, UniProt P23836)).
PhoP, residues 12 14 15 18 19 LFHKL (Escherichia coli, UniProt P23836) — fold induction: 0.442.
The fold induction was 4.05 (PhoP, residues 12 14 15 18 19 GMGLL (Escherichia coli, UniProt P23836)).

Series 4
Target: CCNE1, cyclin fold, Cln2 fusion (human)
Technique: yeast growth competition, sequencing
Matrix: yeast
Setting: strong parent motif
Baseline: not given
Reading: higher = stronger binding
Parent: E2F1 docking peptide (human); PPVKRRLDLETDH; partner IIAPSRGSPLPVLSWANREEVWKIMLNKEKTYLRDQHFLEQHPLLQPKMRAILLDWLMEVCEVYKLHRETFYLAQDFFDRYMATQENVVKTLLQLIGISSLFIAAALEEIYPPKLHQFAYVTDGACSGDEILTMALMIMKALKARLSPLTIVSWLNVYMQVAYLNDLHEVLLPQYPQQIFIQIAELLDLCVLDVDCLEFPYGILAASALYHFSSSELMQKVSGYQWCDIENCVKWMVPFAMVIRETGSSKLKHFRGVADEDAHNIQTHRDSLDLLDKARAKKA
For `PPVKRRLDLETDL [H13L]`, “normalised enrichment score” read 2.22.
`PPVKRRLDLEIDH [T11I]` — result for “normalised enrichment score”: 2.12.
`PRVKRRLDLETDH [P2R]`: “normalised enrichment score” 1.52.
For `PPVRRRLDLETDH [K4R]`, “normalised enrichment score” read 2.23.
`SPVKRRLDLETDH [P1S]` — result for “normalised enrichment score”: 0.834.
For `PDVKRRLDLETDH [P2D]`, “normalised enrichment score” read 1.33.
Under “normalised enrichment score”, `PPVKRRLDFETDH [L9F]` is recorded as 6.66.
`PPVKRMLDLETDH [R6M]` — result for “normalised enrichment score”: 0.784.
Under “normalised enrichment score”, `PPVKRRLDLEGDH [T11G]` is recorded as 1.9.
Under “normalised enrichment score”, `PPVKRRLDLETHH [D12H]` is recorded as 1.17.
`PPVKRRLDLWTDH [E10W]`: “normalised enrichment score” 1.44.
`PPVKRRLDLCTDH [E10C]` — result for “normalised enrichment score”: 1.82.
`PPVKRTLDLETDH [R6T]`: “normalised enrichment score” 1.08.
For `PPVKRRDDLETDH [L7D]`, “normalised enrichment score” read 0.327.

Excerpt of the above (series 2):
`UCCCCAGGGCCUGGCCUACUCAAUCUCUCCCACCUCAUCCUCUGGCAUGGACGCAGUCAGGGAGUCUGCUCCAAGCAGACACUGGUGGUC` has a log2 enrichment of 0.322.
The log2 enrichment of `CUGUGCUACACAUCGUAUGUACCGAAUCGGCCCCCCCGGGGCCCCCCCGGGGCCCCCCCGGGAAAGUAUUAUGUUACGCCGUUCGGAUCU` is reported as -2.24.
